Results gathered from unrelated publications.
Numbered parts are unrelated; each lists some results of a single study. Changes are numbered by the printed parent chain.
Sequence of UniProt O14933 (whole entry, looked up): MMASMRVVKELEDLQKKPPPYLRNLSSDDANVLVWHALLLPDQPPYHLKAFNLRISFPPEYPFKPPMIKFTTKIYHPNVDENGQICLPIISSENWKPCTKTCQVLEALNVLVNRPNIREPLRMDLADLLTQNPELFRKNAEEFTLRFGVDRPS
Sequence of UniProt P51965 (whole entry, looked up): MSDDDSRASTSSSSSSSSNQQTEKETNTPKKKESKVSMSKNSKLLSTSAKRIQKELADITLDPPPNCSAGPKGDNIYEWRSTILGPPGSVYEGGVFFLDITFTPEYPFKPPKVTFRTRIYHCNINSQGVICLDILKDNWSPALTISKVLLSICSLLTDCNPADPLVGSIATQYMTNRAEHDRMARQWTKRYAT
Sequence of UniProt Q8WVN8 (whole entry, looked up): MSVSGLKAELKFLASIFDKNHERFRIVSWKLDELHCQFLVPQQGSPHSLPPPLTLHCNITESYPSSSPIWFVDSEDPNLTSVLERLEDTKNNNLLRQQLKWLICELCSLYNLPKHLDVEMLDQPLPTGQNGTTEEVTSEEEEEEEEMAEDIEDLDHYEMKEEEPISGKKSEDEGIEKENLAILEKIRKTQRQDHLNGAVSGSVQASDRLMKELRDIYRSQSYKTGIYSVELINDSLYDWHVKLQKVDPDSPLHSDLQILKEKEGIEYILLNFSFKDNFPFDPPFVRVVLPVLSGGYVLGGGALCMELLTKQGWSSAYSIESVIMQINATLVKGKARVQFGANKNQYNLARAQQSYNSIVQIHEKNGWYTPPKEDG
Sequence of UniProt P61088 (whole entry, looked up): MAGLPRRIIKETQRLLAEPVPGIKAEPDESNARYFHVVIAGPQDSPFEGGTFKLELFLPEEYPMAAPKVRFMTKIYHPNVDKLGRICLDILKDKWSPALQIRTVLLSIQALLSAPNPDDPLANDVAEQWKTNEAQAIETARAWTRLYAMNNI
Sequence of UniProt P49427 (whole entry, looked up): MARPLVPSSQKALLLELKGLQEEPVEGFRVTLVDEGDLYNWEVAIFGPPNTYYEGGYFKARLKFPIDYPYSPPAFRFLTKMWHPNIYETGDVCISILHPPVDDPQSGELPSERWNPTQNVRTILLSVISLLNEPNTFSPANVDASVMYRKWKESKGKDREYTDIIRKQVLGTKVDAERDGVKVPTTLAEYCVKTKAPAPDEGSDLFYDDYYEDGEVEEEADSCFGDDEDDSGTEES
Sequence of UniProt Q13404 (whole entry, looked up): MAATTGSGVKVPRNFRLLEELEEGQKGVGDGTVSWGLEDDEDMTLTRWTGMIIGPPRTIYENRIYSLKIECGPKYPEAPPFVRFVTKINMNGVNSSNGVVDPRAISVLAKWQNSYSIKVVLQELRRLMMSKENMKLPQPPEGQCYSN
Sequence of UniProt Q5VVX9 (whole entry, looked up): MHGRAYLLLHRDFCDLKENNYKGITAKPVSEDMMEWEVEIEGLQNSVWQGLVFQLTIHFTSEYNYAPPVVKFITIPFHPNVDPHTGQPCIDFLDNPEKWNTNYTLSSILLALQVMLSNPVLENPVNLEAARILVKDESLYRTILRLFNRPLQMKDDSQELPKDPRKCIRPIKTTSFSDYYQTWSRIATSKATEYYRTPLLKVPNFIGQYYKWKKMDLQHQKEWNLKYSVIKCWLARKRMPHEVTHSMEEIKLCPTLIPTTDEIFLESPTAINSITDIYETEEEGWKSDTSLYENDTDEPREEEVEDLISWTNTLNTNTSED
Sequence of UniProt Q15819 (whole entry, looked up): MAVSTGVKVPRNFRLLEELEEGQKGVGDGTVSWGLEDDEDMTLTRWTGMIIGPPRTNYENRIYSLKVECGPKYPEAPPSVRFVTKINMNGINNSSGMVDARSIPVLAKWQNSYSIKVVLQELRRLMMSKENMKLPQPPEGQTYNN
Sequence of UniProt P61077 (whole entry, looked up): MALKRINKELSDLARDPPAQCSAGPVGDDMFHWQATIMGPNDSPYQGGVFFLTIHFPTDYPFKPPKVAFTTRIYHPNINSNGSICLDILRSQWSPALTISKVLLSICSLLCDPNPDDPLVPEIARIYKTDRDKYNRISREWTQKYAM

Study 1
Target: Ras GTPase-activating protein-binding protein 1, C-terminal RGG region (G3BP1, Homo sapiens, UniProt Q13283)
Sequence of UniProt Q13283 (whole entry, looked up): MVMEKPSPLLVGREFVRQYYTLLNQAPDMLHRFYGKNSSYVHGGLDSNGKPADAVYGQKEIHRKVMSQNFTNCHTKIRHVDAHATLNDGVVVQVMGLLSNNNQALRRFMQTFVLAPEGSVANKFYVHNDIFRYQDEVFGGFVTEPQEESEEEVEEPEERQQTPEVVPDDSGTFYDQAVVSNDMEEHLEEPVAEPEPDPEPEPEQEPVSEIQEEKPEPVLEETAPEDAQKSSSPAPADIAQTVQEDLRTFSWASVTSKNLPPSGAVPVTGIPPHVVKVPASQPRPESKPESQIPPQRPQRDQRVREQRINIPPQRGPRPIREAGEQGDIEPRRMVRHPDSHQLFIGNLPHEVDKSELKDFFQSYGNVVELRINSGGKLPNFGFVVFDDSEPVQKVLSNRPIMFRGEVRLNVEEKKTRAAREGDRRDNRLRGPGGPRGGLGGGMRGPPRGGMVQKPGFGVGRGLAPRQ
Method: RNA Bind-n-Seq
Molecule type: RNA
Matrix: in vitro
Tested at: 1 µM
Notes: whole 134-nt RNA, ends assumed
Together with: 150 mM KCl
Relative to: input library
Direction: higher = stronger binding
Constant ends, left off below: GGGAGUUCUACAGUCCGACGAUC … UGGAAUUCUCGGGUGUCAAGG
Sequence	log2 enrichment
UUUUCAAGGGCCGCUUGAAGAUGCCAUUGAAGAUGAGGAAGAAGAAUGUCCAUCAGAGGAAACAGACAUCAUCUCCAAAGGAGACUUUCC	-1.94
CAAGUCCUGUGCUACACAUCGUAUGUACCGAAUCGGGGAGGGGAAAGGGGUGGGGAAAGUAUUAUGUUACGCCGUUCGGAUCUGCACUUC	2.83
CAAGUCCUGUGCUACACAUCGUAUGUACCGAAUCGGGUUUGGGGUUUGGGGUUUGGAAAGUAUUAUGUUACGCCGUUCGGAUCUGCACUU	-1.02
UCAAGUCCUGUGCUACACAUCGUAUGUACCGAAUCGGGCCGGGGCCGGGCCGGGAAAGUAUUAUGUUACGCCGUUCGGAUCUGCACUUCC	-0.119
CUCAAGUCCUGUGCUACACAUCGUAUGUACCGAAUCGGGUUGGGGUUGGUUGGAAAGUAUUAUGUUACGCCGUUCGGAUCUGCACUUCCA	-0.348
CUGUGCUACACAUCGUAUGUACCGAAUCGGGGAAAAAAAGGGGAAAGGGGUUUUUUUGGGGAAAGUAUUAUGUUACGCCGUUCGGAUCUG	0.444
UCCUUUUUUUUUUUCUUUGAAUGUAUUUAUUUCUUGUAGUCUACUGGUGCUGUUGUGACGGAGAGCCAGACGUACAAAAACCGAGCUGGU	-0.674
GUCCUGUGCUACACAUCGUAUGUACCGAAUCGGGAAAAAGGGGAAAAAGGAAAAAGGGGAAAGUAUUAUGUUACGCCGUUCGGAUCUGCA	-1.06
ACCAUGCAGGUGGGCAUCUUUGGGAAGUGGGGCAAGGGGGGGAUAGGGAGGGGGGUAACACUUUGGGAACAGGUGGUCCCAGGUCCUUUC	2.11
GUCCUGUGCUACACAUCGUAUGUACCGAAUCGGGGUUUUUGGGGAAAAAGGGGAGGGGAAAGUAUUAUGUUACGCCGUUCGGAUCUGCAC	2.24
CCUCAAGUCCUGUGCUACACAUCGUAUGUACCGAAUCGGCGGGCGGGGCGGGAAAGUAUUAUGUUACGCCGUUCGGAUCUGCACUUCCAG	-0.0559
UGGGAGGUGGAUUUUGUUUAUUUUUUUAGCUCAUUUCCAGGGGUGGGAAUUUUUUUUUAAUAUGUGUCAUGAAUAAAGCUGUUUUUGAAA	3.07
ACCAAGCAGGUGGGCAUCUUUGGGAAGUGGGGCAAGGGGGGGAUAGGGAGGGGGGUAACACUUUGGGAACAGGUGGUCCCAGGUCGUUUC	-1.08
UCUCCCAUCAAAGGACGUGCACAGCCUUAUGAUCCCAAUUUUUACGAUGAAACCUAUGAUUAUGGUGGUUUUACAAUGAUGUUUGAUGAC	0.302

Study 2
Target: Prothrombin, mature alpha-thrombin (F2, Homo sapiens, UniProt P00734)
Method: aptamer microarray, sandwich
Molecule type: DNA with 2'F-ANA
Matrix: in vitro
Tested at: 200 nM
Notes: whole 15-mer aptamer, many near background
Together with: Cy3 exosite-II aptamer, 400 nM
Direction: higher = stronger binding
Sequence: GGTTGGTGTGGTTGG
Modification	mean fluorescence intensity [a.u.]
2'F-ANA at 2 3 6 7 9 13 14	304
2'F-ANA at 2 4 5 6 12 13 15	90.9
2'F-ANA at 1 6 7 9 10 11 12 13 14 15	47.6
2'F-ANA at 3 4 6 10 12 13 14 15	171
2'F-ANA at 1 3 4 5 8 9 10 11 12	47.3
2'F-ANA at 2 4 5 7 8 9 11 12 13 14 15	49.4
2'F-ANA at 2 4 7 11 13	216
2'F-ANA at 2 3 6 7 8 9 10 15	326
2'F-ANA at 1 4 8 11 12 13 15	198
2'F-ANA at 5 9 10 12 13 15	51
2'F-ANA at 4 5 6 7 9 12 14 15	55.7
2'F-ANA at 1 3 6 7 9 10 11 12 13 14 15	108
2'F-ANA at 3 6 11 12 14 15	487
2'F-ANA at 2 5 6 12 15	141
2'F-ANA at 1 5 6 7 8 12 15	130
2'F-ANA at 1 8 12 13 15	362
2'F-ANA at 1 2 3 6 8 9 10 11 13 14 15	70.7
2'F-ANA at 1 3 4 5 6 8 9 11 13 15	58.5
2'F-ANA at 3 5 7 8 9 10 13 15	59.5
2'F-ANA at 2 3 4 5 7 8 9 10 12 14	48.9
2'F-ANA at 2 7 9 12 13 15	565
2'F-ANA at 2 5 6 11	143

Study 3
Molecule: B1 (RNF11 RING domain)
Method: yeast two-hybrid
Matrix: yeast
Notes: mostly zero background
Relative to: not given
Direction: higher = stronger interaction
B1: RNF11 RING domain (UniProt Q9Y3C5); chain RDGSEKKIRECVICMMDFVYGDPIRFLPCMHIYHLDCIDDWLMRSFTCPSCMEPVDAALLSS
target	lacZ reporter activity
UBE2V1 UBC core domain (UniProt Q13404)	0
UBE2V2 UBC core domain (UniProt Q15819)	0
CDC34 UBC core domain (UniProt P49427)	0
UBE2N UBC core domain (UniProt P61088)	15600
UBE2U UBC core domain (UniProt Q5VVX9)	11500
UBE2E1 UBC core domain (UniProt P51965)	0
UBE2L6 UBC core domain (UniProt O14933)	0
UBE2D3 UBC core domain (UniProt P61077)	17400
UBE2Q2 UBC core domain (UniProt Q8WVN8)	0

Study 4
Target: Interferon regulatory factor 7, full length, phosphomimetic (IRF7, Homo sapiens, UniProt Q92985, residues 1-503, S471D/S472D/S475D/S476D/S477D/S483D/S484D/S487D)
Method: protein-binding microarray
Molecule type: double-stranded DNA, one strand shown
Matrix: in vitro
Tested at: 2200 nM top
Notes: 60-bp whole probe
Together with: salmon DNA 0.4 mg/ml
Relative to: random background probes
Direction: higher = stronger binding
Constant ends, left off below: GCCTAGCAC … GTCTTGATTCGCTTGACGCTGCTG
Construct (chain): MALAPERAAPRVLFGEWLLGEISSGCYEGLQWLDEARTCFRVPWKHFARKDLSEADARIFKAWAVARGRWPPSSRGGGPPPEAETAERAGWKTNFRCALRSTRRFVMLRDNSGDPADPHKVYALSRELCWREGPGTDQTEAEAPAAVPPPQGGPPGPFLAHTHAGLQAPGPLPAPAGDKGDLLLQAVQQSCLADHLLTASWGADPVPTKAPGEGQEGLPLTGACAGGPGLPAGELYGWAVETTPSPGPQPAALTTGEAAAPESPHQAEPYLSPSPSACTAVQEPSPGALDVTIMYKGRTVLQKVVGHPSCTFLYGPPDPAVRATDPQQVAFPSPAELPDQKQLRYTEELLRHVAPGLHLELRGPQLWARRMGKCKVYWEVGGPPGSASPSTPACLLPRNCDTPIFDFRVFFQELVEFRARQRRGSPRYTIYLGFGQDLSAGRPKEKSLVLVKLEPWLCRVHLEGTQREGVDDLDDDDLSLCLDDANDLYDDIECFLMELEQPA
Sequence	fitted relative affinity [z-score]
TTAGATATCCGACTGGATTAGTGCTAG	-0.157
GACGGGATCCTTATCCTGACGTGCTAG	0.462
GACAGTTTCGGTATCGGGACGTGCTAG	9.51
ACTGCATTCCCTTTCTCAACGTGCTAG	3.3
GACGGTCTCGGACCGGGGACGTGCTAG	-0.584
GAGGGTATCGGGTATCGGGACGTGCTA	-0.442
TTGGGTCTCCTTCTCCTTTAGTGCTAG	1.04
GACGAACTGGGGTATCGACACGTGCTA	0.0385
TTAGAACTGGCGTTTCGATTAGTGCTA	0.921
GACGACTTCAGTTTCGAGACGTGCTAG	3.65
GACGGTATCGGACTGGGGGCGTGCTAG	0.0301
GTTTGTGTGTGTATGTGGTCGTGCTAG	1.21
TTAGGACTGCCTATCCTTTAGTGCTAG	0.342
CACATTCTCTGCTTGGGTCTGTGCTAG	1.99
TTAGGTTTCCTTTCCTTTTAGTGCTAG	5.7
GACGGTTGCGGGTATCGGGACGTGCTA	-0.00664

Study 5
Target: CCNA2, cyclin fold, Cln2 fusion (human)
Method: yeast growth competition, sequencing
Matrix: yeast
Notes: strong parent motif
Relative to: not given
Direction: higher = stronger binding
Starting sequence: SCAPER docking peptide (human); SNARRSLNFGGST
Change	normalised enrichment score
N8E	4.97
A3W	3.04
N2P	5.01
G10Y	6.15
F9Q	0.639
A3G	2.07
R5K	5.35
T13R	6.18
F9V	1.61
G10C	5.29
L7D	1.1
G11W	5.71
N8C	4.73
F9G	0.338
L7R	0.882
S12I	6.83
N8L	4.27
S12H	6.35
R4L	1.13

Excerpt of the above (study 2):
Modification	mean fluorescence intensity [a.u.]
2'F-ANA at 1 3 4 5 6 8 9 11 13 15	58.5
2'F-ANA at 1 6 7 9 10 11 12 13 14 15	47.6
2'F-ANA at 2 4 5 6 12 13 15	90.9
2'F-ANA at 1 5 6 7 8 12 15	130
2'F-ANA at 2 4 5 7 8 9 11 12 13 14 15	49.4
2'F-ANA at 2 5 6 11	143
2'F-ANA at 3 5 7 8 9 10 13 15	59.5
2'F-ANA at 2 4 7 11 13	216
